Values quoted from earlier work as cited in several papers.
Lines come from different studies, so protocols differ. Numbers after ± are the reported error. Values after ≈ are worked out from the molar mass of the structure shown.
UniProt Q9H1R3, sequence (whole entry, looked up): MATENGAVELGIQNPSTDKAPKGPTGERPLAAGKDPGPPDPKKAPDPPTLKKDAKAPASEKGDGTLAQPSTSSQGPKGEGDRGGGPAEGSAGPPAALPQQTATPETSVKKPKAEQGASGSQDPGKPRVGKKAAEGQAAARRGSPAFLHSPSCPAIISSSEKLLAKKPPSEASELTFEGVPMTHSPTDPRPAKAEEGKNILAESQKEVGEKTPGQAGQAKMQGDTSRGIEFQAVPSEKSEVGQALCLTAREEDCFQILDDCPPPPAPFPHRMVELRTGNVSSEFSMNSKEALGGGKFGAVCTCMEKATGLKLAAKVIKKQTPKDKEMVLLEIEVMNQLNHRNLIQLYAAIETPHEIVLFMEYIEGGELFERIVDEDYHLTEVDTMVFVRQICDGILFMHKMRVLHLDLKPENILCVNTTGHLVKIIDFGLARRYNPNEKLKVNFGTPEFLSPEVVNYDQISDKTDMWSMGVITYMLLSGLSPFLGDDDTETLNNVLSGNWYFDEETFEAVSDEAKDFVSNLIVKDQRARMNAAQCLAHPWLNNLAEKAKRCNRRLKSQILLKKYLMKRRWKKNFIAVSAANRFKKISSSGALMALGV

| SMILES | tested on | test | system | conditions | how to read | endpoint | result |
| --- | --- | --- | --- | --- | --- | --- | --- |
| N#CCNC(=O)c1ccc(-c2ccnc(Nc3ccc(N4CCOCC4)cc3)n2)cc1 |  |  | human, urine | oral, time not given, single dose 14C-labelled | reference: dose | recovered drug-related material | 27.5% |
| CN(C)C(=O)c1cc2cnc(Nc3ccc(N4CCNCC4)cn3)nc2n1C1CCCC1 |  | refers to: anemia | advanced solid tumour or lymphoma patients | dose not given, continuous dosing | reference: patients | adverse event incidence | 26.3% |
| O=C(O)CN(CC(=O)O)CC(=O)O |  | pH-potentiometry, refers to: logK3H | 0.15 M NaClO4 | 25 °C |  | protonation constant (log) | 1.06 |
| CC(C)n1c(Nc2cccnc2)nc2cnc(Nc3ccc(N4CCN(C)CC4)cc3)nc21 |  |  | healthy human | 100 mg, single dose, median |  | AUC(0-t) | 836 ng·h/mL |
| CC(C)[C@H](N)C(=O)OCC(CO)OCn1cnc2c(=O)[nH]c(N)nc21 (stereo partly shown) |  |  | rat | 10 mg/kg |  | oral bioavailability | 92% |
| Nc1cccc2c1C(=O)N(C1CCC(=O)NC1=O)C2=O (stereo not shown) |  |  | relapsed refractory multiple myeloma patients | dose not given |  | discontinuation due to adverse events | 12% |
| Cc1cc(Nc2ccc(S(F)(F)(F)(F)F)cc2)n2ncnc2n1 |  |  | human liver microsomes |  |  | intrinsic clearance | < 5 µL/min/mg |
| Cc1nc(NC(=O)N2CCC[C@H]2C(N)=O)sc1-c1ccnc(C(C)(C)C(F)(F)F)c1 |  |  | human |  |  | median Tmax | 2 to 4 h |
| C[C@H]1COCCN1c1nc(-c2cnc(N)cc2C(F)F)nc(N2CCOCC2)n1 | A-375 |  |  |  |  | GI50 | 0.469 µM |
| COc1c(Cl)cccc1Nc1c(-c2ccncc2OC[C@@H]2COCCO2)[nH]c2c1C(=O)NCC2 |  |  | patients, NSCLC, HER2-mutant, previously treated | dose not given, grade ≥3 |  | treatment-related AEs incidence | 38% |
| CCN1CCN(Cc2ccc(Nc3ncc(F)c(-c4cc(F)c5nc(C)n(C(C)C)c5c4)n3)nc2)CC1 |  |  | rat, plasma | dose not given |  | parent share of plasma radioactivity | ~79% |
| Nc1ccn([C@H]2CO[C@@H](CO)S2)c(=O)n1 |  |  | rat |  |  | oral bioavailability | 68% |
| Cc1cc(-c2nccc3c2ccn3CC(=O)Nc2ccc(-c3cnccn3)cn2)ccn1 |  | refers to: total drug | dog | 50 mg/kg/day, 14-day dose-range finding |  | Cmax | 1700 nM |
| COc1cc(NC(=O)CCN2CCC(OC(=O)Nc3ccccc3-c3ccccc3)CC2)c(Cl)cc1CNC[C@H](O)c1ccc(O)c2[nH]c(=O)ccc12 |  |  | human | inhaled |  | lung deposited fraction | 0.26 |
| COc1ccc2c(c1)c(CC(=O)O)c(C)n2C(=O)c1ccc(Cl)cc1 |  |  | human |  |  | renal clearance | 0.195 mL/min/kg |
| COc1c(OCCCN2CCOCC2)ccc2c1N=C(NC(=O)c1cnc(N)nc1)N1CCN=C21 |  |  | relapsed indolent NHL patients | dose not given, added: rituximab |  | patients with dose interruption | 75.2% |
| CC(C)(CO)c1nc(-c2cccc(NS(=O)(=O)c3c(F)cccc3F)c2F)c(-c2ccnc(N)n2)s1 |  |  | human | dose not given, dabrafenib monotherapy | reference: metabolite over dabrafenib | metabolite to parent ratio | ~90% |
| C=CCCC(=O)O |  | small eyes | zebrafish embryo | nominal concentration |  | EC10 | > 1400 µM |
| CN(C)C(=N)N=C(N)N |  |  | healthy human subjects |  |  | rate constant k12 | 0.0194 min⁻¹ |
| O=C(O)CN(CCN(CC(=O)O)CC(=O)O)CCN(CC(=O)O)CC(=O)O |  | pH-potentiometry, refers to: logK2H | 0.1 M NaClO4 | 25 °C |  | protonation constant (log) | 8.63 |

| SMILES | tested on | test | system | conditions | how to read | endpoint | result |
| --- | --- | --- | --- | --- | --- | --- | --- |
| CCCC(C)C(=O)O (stereo not shown) |  | scoliosis or lordosis | zebrafish embryo | nominal concentration |  | EC10 | 393 µM |
| CO[C@@H](C)Cn1c(=O)n(C)c2cnc3ccc(-c4cncc(C(C)(C)O)c4)cc3c21 |  |  | dog |  |  | oral bioavailability | 66% |
| O=C(c1cccnc1-c1ccncc1)N1CCC(O)(Cc2ccccc2)CC1 |  |  | human | dose not given |  | participants with treatment-emergent adverse events | 80.3% |
| c1ccc2c(c1)ccc1ccccc12 |  |  | pooled human liver microsomes | 0.25 µM |  | metabolism rate | 99.7 pmol/min/mg |
| CO[C@H]1C[C@@H]2CC[C@@H](C)[C@@](O)(O2)C(=O)C(=O)N2CCCC[C@H]2C(=O)O[C@H]([C@H](C)C[C@@H]2CC[C@@H](OCCO)[C@H](OC)C2)CC(=O)[C@H](C)/C=C(\C)[C@@H](O)[C@@H](OC)C(=O)[C@H](C)C[C@H](C)/C=C/C=C/C=C/1C |  |  | plasma | concentration not given, population PK two-compartment |  | apparent central volume (V1/F) | 191 L |
| COc1cc2c(Oc3ccc4[nH]c(C)cc4c3F)ccnc2cc1OCC1(N)CC1 |  |  | Beagle dog | oral, 0.40 mg/kg, 8 h, 13 weeks dosing |  | AUC(0-t) | 195 ng·h/mL |
| C=CC(=O)NC1CCN(c2ncc3ncnc(Nc4ccc(Oc5ccc6c(c5)ncn6C)c(C)c4)c3n2)CC1 |  |  | human | dose not given |  | time to steady state | ~2.5 days |
| O=C(COc1ccc(N2C(=O)[C@@H]3[C@@H]4C=C[C@@H]([C@H]5C[C@@H]45)[C@@H]3C2=O)cc1)c1cc(Cl)cc(Cl)c1 |  |  | mouse, brain | oral, 20 mg/kg |  | AUC(0-last) | 1.77e+06 ng·min/g |
| Nc1ccn([C@@H]2O[C@H](CO)[C@@H](O)C2(F)F)c(=O)n1 |  |  | pancreatic cancer patients | dose not given |  | patients with dose reduction | 25% |
| O=C1CC[C@H](N2Cc3cc(N4CCN(CC5CCN(c6ccc([C@@H]7c8ccc(O)cc8CC[C@@H]7c7ccccc7)cc6)CC5)CC4)ccc3C2=O)C(=O)N1 |  |  | heavily pretreated patients | dose not given, monotherapy, interim data |  | tolerability | not toxic |
| Nc1cc(C(F)(F)F)c(-c2nc(N3CCOCC3)nc(N3CCOCC3)n2)cn1 | Myosin light chain kinase 2, skeletal/cardiac muscle (MYLK2, Homo sapiens, UniProt Q9H1R3) | enzyme activity |  | 10 µM | reference: untreated | remaining activity | 97% |
| CCCCC(C)C(=O)O (stereo not shown) |  | pericardial and yolk oedema | zebrafish embryo | nominal concentration |  | EC10 | 385 µM |
| Oc1ccc(C(c2ccc(O)cc2)(C(F)(F)F)C(F)(F)F)cc1 |  | refers to: free (unconjugated) compound | B6C3F1/N mouse, female | oral gavage, 34 mg/kg |  | Cmax | 313 nM |
| N#C[C@@]1(c2ccc3c(N)ncnn23)O[C@H](CO)[C@@H](O)[C@H]1O |  |  | dog, plasma | intravenous, 2 mg/kg, 0.083 h, solution |  | plasma concentration | 4570 ng/mL |
| Cn1ncnc1[C@H]1c2n[nH]c(=O)c3cc(F)cc(c23)N[C@@H]1c1ccc(F)cc1 |  |  | human, severe renal impairment | dose not given, monotherapy | reference: normal renal function | AUC(0-24) increase | ~96.4% |
| CC1(C)S[C@@H]2[C@H](NC(=O)[C@H](N)c3ccccc3)C(=O)N2[C@H]1C(=O)O | Escherichia coli |  | clinical isolate RKI-No_462/16 |  |  | MIC | > 16 µg/mL |
| C#C[C@]1(O)CC[C@H]2[C@@H]3CCc4cc(O)ccc4[C@H]3CC[C@@]21C |  |  | HCl fasted stomach medium | 1.0 h |  | cumulative release | 82% |
| CNC(C)C1CCC(N)C(OC2C(N)CC(N)C(OC3OCC(C)(O)C(NC)C3O)C2O)O1 (stereo not shown) | Escherichia coli |  | clinical isolate RKI-No_582/16 |  |  | MIC | 1 µg/mL (≈ 2.09 µM) |
| O=C(O)c1cc(O)c(O)c(O)c1 |  |  | rat | oral, 588 µmol/kg, 15 min |  | blood concentration | 71000 nM |
| CC(C)(C)OC(=O)c1ccc(O)cc1 |  |  |  | pH 7.4 |  | logD | 2.83 |

| SMILES | tested on | test | system | conditions | how to read | endpoint | result |
| --- | --- | --- | --- | --- | --- | --- | --- |
| C=C1[C@H](CO)[C@@H](O)C[C@@H]1n1cnc2c(=O)[nH]c(N)nc21 |  |  | dog | 10 mg/kg |  | oral bioavailability | 91% |
| CCn1cc(-c2cc(Cn3ccnc3)cc3c2CCN([C@H](c2cc(OC)ccn2)C2CC2)C3=O)c(C(F)(F)F)n1 |  |  | CD-1 mouse | intravenous, 3 mg/kg |  | clearance | 20 mL/min/kg |
| O=C(O)Cc1ccccc1Nc1c(Cl)cccc1Cl |  |  | rat |  |  | plasma clearance | 13.6 mL/min/kg |
| COc1ccccc1OCC(O)CN1CCN(CC(=O)Nc2c(C)cccc2C)CC1 (stereo not shown) |  |  | human adults | dose not given |  | bioavailability | 35 to 50% |
| CCCOc1ccc(S(=O)(=O)N2CCN(CCO)CC2)cc1-c1nc2c(CCC)cn(CC)c2c(=O)[nH]1 |  |  | healthy male volunteers | dose not given, with concomitant alcohol |  | systolic blood pressure change | -15.1 mmHg |
| Nc1nc(O)c2ncn(COC(CO)CO)c2n1 |  |  | dog |  |  | oral bioavailability | 100% |
| Cn1cncc1[C@@](N)(c1ccc(Cl)cc1)c1ccc2c(c1)c(-c1cccc(Cl)c1)cc(=O)n2C |  |  | human adults, plasma | 300 mg, 7, 9 |  | Cave | ~350 ng/mL |
| O=C(O)CN1CCNCCN(CC(=O)O)CCN(CC(=O)O)CC1 |  |  |  | 0.15 M NaCl |  | sum of log KiH | 30.3 |
| CCCC(CCC)C(=O)O |  |  | mouse | i.p., 6 Hz seizure test, 32 mA |  | protective index | 2.9 |
| OC[C@H]1O[C@@H](Oc2cc3c(O)cc(O)cc3[o+]c2-c2ccc(O)c(O)c2)[C@H](O)[C@@H](O)[C@@H]1O |  |  | solution | added: Fe3+ |  | absorption maximum | 650 nm |
| C=CC(=O)N1CCC([C@@H]2CCNc3c(C(N)=O)c(-c4ccc(Oc5ccccc5)cc4)nn32)CC1 |  |  | human patients | oral, 80 mg once daily, day 1 |  | AUC(0-8h) | 513 ± 282 ng·h/mL |
| N=C(N)c1ncn([C@@H]2O[C@H](CO)[C@@H](O)[C@H]2O)n1 |  |  | rat | 30 mg/kg |  | oral bioavailability | 9.91% |
| CC1=N/C(=C\c2cc(F)c(O)c(F)c2)C(=O)N1C |  |  |  |  |  | molar extinction coefficient | 30100 M⁻¹ cm⁻¹ |
| COc1ncc(-c2nc3c(n2C(C)C)[C@H](c2ccc(Cl)cc2)N(c2cc(Cl)cn(C)c2=O)C3=O)c(OC)n1 |  |  | patients with solid tumours or lymphomas | dose not given, grade ≥3, first-in-human trials |  | patients with related thrombocytopenia | 24% |
| CNC(=O)c1c(C)oc2cc(Oc3ncnc4cc(OC)c(OC)cc34)ccc12 |  |  | urine | 5 mg radiolabelled, time not given |  | dose recovered unchanged | 0.5% |
| CO/N=C(\C(=O)N[C@@H]1C(=O)N2C(C(=O)O)=C(CSc3nc(=O)c(=O)[nH]n3C)CS[C@H]12)c1csc(N)n1 |  |  | healthy Chinese subjects |  |  | t_half | 8.5 h |
| O=C(c1cc(Cc2n[nH]c(=O)c3ccccc23)ccc1F)N1CCN(C(=O)C2CC2)CC1 |  |  | human | oral tablet, 100 mg twice daily, multiple dose |  | AUC(last) | 16700 ng·h/mL |
| N[C@@H](Cc1c[nH]c2ccccc12)C(=O)O |  |  |  |  | reference: NHE | redox potential | 1.07 V |

Repeated from above:
| SMILES | tested on | test | system | conditions | how to read | endpoint | result |
| --- | --- | --- | --- | --- | --- | --- | --- |
| Cc1cc(Nc2ccc(S(F)(F)(F)(F)F)cc2)n2ncnc2n1 |  |  | human liver microsomes |  |  | intrinsic clearance | < 5 µL/min/mg |
| Cc1nc(NC(=O)N2CCC[C@H]2C(N)=O)sc1-c1ccnc(C(C)(C)C(F)(F)F)c1 |  |  | human |  |  | median Tmax | 2 to 4 h |
| C=CCCC(=O)O |  | small eyes | zebrafish embryo | nominal concentration |  | EC10 | > 1400 µM |
| C=CC(=O)NC1CCN(c2ncc3ncnc(Nc4ccc(Oc5ccc6c(c5)ncn6C)c(C)c4)c3n2)CC1 |  |  | human | dose not given |  | time to steady state | ~2.5 days |
| Cn1cncc1[C@@](N)(c1ccc(Cl)cc1)c1ccc2c(c1)c(-c1cccc(Cl)c1)cc(=O)n2C |  |  | human adults, plasma | 300 mg, 7, 9 |  | Cave | ~350 ng/mL |
| N#CCNC(=O)c1ccc(-c2ccnc(Nc3ccc(N4CCOCC4)cc3)n2)cc1 |  |  | human, urine | oral, time not given, single dose 14C-labelled | reference: dose | recovered drug-related material | 27.5% |
| O=C(O)CN(CC(=O)O)CC(=O)O |  | pH-potentiometry, refers to: logK3H | 0.15 M NaClO4 | 25 °C |  | protonation constant (log) | 1.06 |
